Published values of several laboratories.
Protocols differ between the studies behind these lines. “And” joins repeats or separate records; there may be more than shown. ± gives the spread as reported.

`Cn1cc2c(n1)CN(C(=O)Nc1nc(-c3ccc(F)cc3)ccc1N)C2` has a colony formation of 16% (human bone marrow erythroid progenitors; 10 µM, 14 days; relative to: untreated).
`COc1cc(-c2ccc3oc(-c4ccsc4)c(C#CC4(O)CCCCC4)c3c2)cc(OC)c1OC` gave a CC50 of > 100 µM (primary human hepatocytes).
`O=C(Cc1ccc(OCc2ccccc2)cc1)NC1(C(=O)O)CCN(C(=O)c2ccc(-c3cccc(Cl)c3)cc2)CC1` gave an IC50 of > 100 µM (LX-2; cytotoxicity; 3 days).
For `COc1ccc(NC(=O)N/N=C2\CC3(CCN(C)CC3)Oc3ccccc32)cc1`, the IC50 was 3.3 ± 0.13 µM (PC-3; cell growth, MTT; 48 h).
With `N#Cc1cc(C(=O)OCC[18F])c(C(F)(F)F)nc1N1CCN(C(=O)Cc2ccccc2)CC1` the permeability was 21.5% (bEnd.3 monolayer transwell; concentration not given, added: verapamil 1.0 µg).
`CC/C(=C(\c1ccc(O)cc1)c1ccc(OCCN(C)CCOCCOCCOCCOCCOCCN(C)CCOc2ccc(/C(=C(/CC)c3ccccc3)c3ccc(O)cc3)cc2)cc1)c1ccccc1` gave a cell density of 15% (U2OS transfected with ERα; 10 µM, cytotoxicity).
`CC(C)C[C@H](NC(=O)[C@H](CC(N)=O)NC(=O)[C@H](Cc1ccc(O)cc1)NC(=O)CN(C)C(=O)CCCCC(=O)O)C(=O)N[C@@H](Cc1ccc(O)cc1)C(=O)N[C@@H](CCCNC(=N)N)C(=O)N[C@H](C(=O)N[C@@H](CCCNC(=N)N)C(=O)N[C@@H](CO)C(N)=O)C(C)C` — result for “decrease in cell growth”: ~40% (choroidal endothelial cells; MTT; 100 µM, 48 h).
`CCCCn1cc(C(=O)O)c(=O)c2cc(F)c(Nc3cccc(OC)c3)c([N+](=O)[O-])c21` has an IC50 of 130 ± 13.1 µg/mL (PC-3; cell growth, sulforhodamine B; 72 h).
`[99Tc+].[C-]#[N+]CC(C)(C)OC.[C-]#[N+]CC(C)(C)OC.[C-]#[N+]CC(C)(C)OC.[C-]#[N+]CC(C)(C)OC.[C-]#[N+]CC(C)(C)OC.[C-]#[N+]CC(C)(C)OC`: “canalicular efflux fraction” 28.3% (human sandwich-cultured hepatocytes; relative to: total efflux).
The CC50 of `COc1cc2c(C=C3C(=O)Nc4ccccc43)c[nH]c2cc1C` is reported as 55 µM (NCI-60 panel).
`CC(=O)OC[C@H]1O[C@@H]([Se]c2ccc([N+](=O)[O-])cc2[N+](=O)[O-])[C@H](OC(C)=O)[C@@H](OC(C)=O)[C@@H]1OC(C)=O` gave a CC50 of 19.3 µM (J774; cell growth or viability, WST-1; 24 h).
`CCCCCCCCCCCCCCCC(=O)NCCCC[C@H](NC(=O)[C@H](CCCNC(=N)N)NC(=O)[C@H](CCCCNC(=O)CCCCCCCCCCCCCCC)NC(C)=O)C(=O)O` has an inhibition of 1% (SK-OV-3; cell proliferation; 100 µM, 24 h, 37 °C, serum-containing medium).
`O=C(OCc1cccc(O)c1O)c1ccc(O)c(CO)c1`: cytotoxicity “not toxic” (human PBMC; 20 µM, 48 h).
With `COc1ccc2c(c1)c1c(C)c3cnccc3c(C)c1n2CCCN1CCN(C)CC1` the IC50 was 1.8 ± 0.6 µM (SH-SY5Y; cell growth).
With `Cc1ncc2c(n1)CN(C(=O)Nc1nc(-c3cccs3)ccc1N)C2` the colony formation was 27% (human bone marrow erythroid progenitors; 10 µM, 14 days; relative to: untreated).
`CC/C(=C(\c1ccc(O)cc1)c1ccc(OCCN(C)CCOCCOCCN(C)CCOc2ccc(/C(=C(/CC)c3ccccc3)c3ccc(O)cc3)cc2)cc1)c1ccccc1` gave a cell density of 80% (U2OS transfected with ERα; 10 µM, cytotoxicity).
For `O=Cc1c(O)ccc2ccccc12`, “log2 fold change” read 4.21 (HUVEC; measured: CYP1B1; 75 µM, 24 h; relative to: DMSO).
For `CC(=O)N[C@H](C(=O)N[C@H](C(=O)N[C@@H](CCCNC(=N)N)C(=O)N1Cc2ccccc2C[C@H]1C(=O)N[C@@H](Cc1ccccc1)C(N)=O)C1CCCCC1)C(C)C`, the cytokine level was < 15.7 pg/mL (human PBMC; Bio-Plex multiplex, measured: Eotaxin; 250 µg/mL, 24 h).
For `CC(C)=CCCC(C)C1CCC2(C)C3=C(CCC12C)C1(C)CCC(=O)C(C)(C)C1CC3` (stereo not drawn), the inhibition was 17.2% (COS-7; cell growth or viability, SRB; 50 µM).
`CCCCn1cc(C(=O)O)c(=O)c2cc(F)c(Nc3cc(OC)c(OC)c(OC)c3)c([N+](=O)[O-])c21` gave an IC50 of < 50 µM and 49.6 µM (PC-3; cell growth or viability, SRB).
`C[C@H](NP(=O)(O)OC[C@H]1O[C@@](C#N)(c2ccc3c(N)ncnn23)[C@H](O)[C@@H]1O)C(=O)O` gave a CC50 of > 100 µM (primary human hepatocytes; measured: cellular ATP; 3 days).
For `CC(=O)OC[C@H]1O[C@@H]([Se][C@@H]2O[C@H](COC(C)=O)[C@@H](OC(C)=O)[C@H](OC(C)=O)[C@H]2OC(C)=O)[C@H](OC(C)=O)[C@@H](OC(C)=O)[C@@H]1OC(C)=O`, the CC50 was 10.8 µM (J774; cell growth or viability, WST-1; 24 h).
`COc1ccc(C(=O)Nc2cccc(S(N)(=O)=O)c2)cc1OC` has a cytotoxicity of 27 ± 0.2% (HEK293T; cell viability, MTT; 100 µM, 24 to 48 h).
The cell density of `CC/C(=C(\c1ccc(O)cc1)c1ccc(OCCN(C)CCOCCOCCOCCN(C)CCOc2ccc(/C(=C(/CC)c3ccccc3)c3ccc(O)cc3)cc2)cc1)c1ccccc1` is reported as 51% (U2OS transfected with ERα; 10 µM, cytotoxicity).
The CC50 of `CC(=O)OC[C@H]1O[C@@H]([Se]C(=O)c2ccc([N+](=O)[O-])cc2)[C@H](OC(C)=O)[C@@H](OC(C)=O)[C@@H]1OC(C)=O` is reported as 14.8 µM (J774; cell growth or viability, WST-1; 24 h).
For `CCc1c(CC2CCCCC2)nc(SCC(=O)c2ccccc2)[nH]c1=O`, the CC50 was > 200 µM (human PBMC; cell growth or viability).
`COCCOCCOCCOCCOCCOCCOCCOCCOCCOCCOCCOCCOCCOCCOCCOCCOCCOCCOCCOCCOCCOCCNC(=O)CCC1(Cc2ccccc2)c2ccccc2-c2ccc(-c3sc(-c4c5c(c(-c6sc(-c7ccc8c(c7)C(CCC(=O)NCCOCCOCCOCCOCCOCCOCCOCCOCCOCCOCCOCCOCCOCCOCCOCCOCCOCCOCCOCCOCCOCCOC)(Cc7ccccc7)c7ccccc7-8)c7c6OCCO7)c6nsnc46)N=S=N5)c4c3OCCO4)cc21` (stereo not drawn) has a haemolysis of < 5% (mouse erythrocytes; up to 100 µM).
For `CC(C)CCC[C@@H](C)[C@H]1CCC([C@@H]2CC[C@H]3C[C@H](O)CC[C@]3(C)[C@H]2O)[C@]1(C)CC(=O)O` (stereo partly drawn), the viability was > 100% (HEK293T; CellTiter-Blue; concentration not given).
For `COCCn1cc2c(n1)CN(C(=O)Nc1nc(-c3ccc(F)cc3F)ccc1N)C2`, the colony formation was 40% (human bone marrow erythroid progenitors; 10 µM, 14 days; relative to: untreated).
The cell density of `CC/C(=C(\c1ccc(O)cc1)c1ccc(OCCN(C)CCOCCOCCOCCOCCOCCOCCOCCN(C)CCOc2ccc(/C(=C(/CC)c3ccccc3)c3ccc(O)cc3)cc2)cc1)c1ccccc1` is reported as 10% (U2OS transfected with ERα; 10 µM, cytotoxicity).
With `O=[N+]([O-])c1c(Br)c(Cl)c2cccnc2c1O` the IC50 was ~52.7 µg/mL (HEK293T; cell viability, CCK-8; 48 h).
The non-toxic concentration of `CC(=O)O[C@@H]1[C@@H](OC(C)=O)[C@H](Sc2sc(C(=O)c3ccc(Br)cc3)c(N)c2-c2nc3ccccc3s2)OC[C@H]1OC(C)=O` is reported as 100 µg/mL (Huh7.5, uninfected; 72 h).
For `CC(=O)NCCN(CCC(=O)NCCN(CCC(=O)NCCN(CCC(=O)NCCC(N)=O)C(=O)[C@@H](N)Cc1ccccc1)C(=O)[C@@H](N)CCCNC(=N)N)C(=O)[C@@H](N)Cc1ccccc1`, the CC50 was > 1000 µM (human PBMC; cell growth or viability, MTT).
`COc1ccc(-c2oc3ccc(-c4cc(OC)c(OC)c(OC)c4)cc3c2C#CC2(O)CCCCC2)cc1` has a CC50 of > 31.6 µM (primary human hepatocytes).
The CC50 of `CC(=O)N[C@@H]1[C@@H](OC(C)=O)[C@H](OC(C)=O)[C@@H](COC(C)=O)O[C@H]1[Se]Cc1ccc([N+](=O)[O-])cc1` is reported as 8.6 µM (J774; cell growth or viability, WST-1; 24 h).
With `C[C@H](CCC=O)[C@@H]1CC[C@]2(C)C3=C(CC[C@@]12C)[C@@]1(C)CC[C@H](O)C(C)(C)[C@@H]1CC3` the inhibition was 87.2% (PC-3; cell growth or viability, SRB; 50 µM).
